# Measurements pooled from the literature.
# Numbered parts are unrelated; each lists some results of a single study. Substitutions count along the parent as printed.

# Set 1
# Target: RNA binding protein fox-1 homolog 2, RRM domain, GST-SBP tag (RBFOX2, Homo sapiens, UniProt O43251-10, residues 100-194)
# Method: RNA Bind-n-Seq
# Form: RNA
# Medium: in vitro
# Tested at: 365 nM
# Notes: natural RNA segment, single round, ends assumed
# Relative to: no-protein control
# Reading: higher = stronger binding
# Constant ends, left off below: GGGAGUUCUACAGUCCGACGAUC … UGGAAUUCUCGGGUGCCAA
# Construct (chain): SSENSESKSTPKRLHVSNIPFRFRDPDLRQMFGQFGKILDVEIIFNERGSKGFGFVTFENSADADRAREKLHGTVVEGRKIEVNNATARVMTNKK
Strand,RBNS enrichment (R)
GCUCAUUUUUUCAUGUUUUGUGAAUACUCUGGUCUUGCUGUAAGCUAAUGUCAUGGCUGUGGGAUAUUAGAGAAGUGGGUUUAUGACUCUGAAGACCAGCAGACACCAGA,0.587
CUAGUUUGUGAAGGGAUCUUCCUUUGGACUUUCUCUAAGUUGGGAGAAGAACAUUCUUUUCAAUGGAGCUCAUCUUCUAUCUCUAGGGUCUGUUCAGCCUUUCAUCUAUC,0.699
GCCAGGAGAGGAUAAUUGGAAGUUCUCUUGGACCUUACCUUAUGUGCCUUUCUUCAUUGCUGAUUUUAAUCUGUAUCCUUUCACUGUAAUAAACUGUAACUAUGAGUGCA,1.4
UUUCCUGUGACUUUAAGAGCAUCUGAUGUUCUGUUCUCUUCUCCCACUACGCAACCCACUGCCCUGCCCUGCCCUGCCCUGGCGGGGACUCUGGUUCCCUCCUUGCCUUC,1.64
GCUGCUUCGUCCCACUGCACCGCCUGGCUGAGGGCGUUAGGGGCUGUGCCUCUUGUGAGGGCCAUUUGGGACCUCCCUGGGGCACUGCACAAUUGAUAGUGUACCAAUAG,0.307
GAUUAGUCUGAAUGUUUGCAGGCAUUGGAAUAAAAUUUGACUUAUUUUUUCCCUCUUCCCCUGUCAACCUGAAUCCUGUAUCUGUUUGGGGUAUACUGGCUGUUUGUUAC,1.7
GUCUUCAGCUUUAAGUUGCUGGGGCCAGGCCCCGAGGAGGGUUUACUGAGGGGUCUGUAGGUUUGACUAAAAUAAUAAAUGCUAGGCGUGUUUGAUGCGCUUUUAACUUU,0.544

# Set 2
# Target: Histone acetyltransferase KAT6A, both winged helices, GST fusion (KAT6A, Homo sapiens, UniProt Q92794, residues 1-181)
# Method: protein binding microarray
# Form: double-stranded DNA, one strand shown
# Medium: in vitro
# Tested at: not given
# Notes: 8-mer, flanks averaged, mean of 2 arrays, mostly near background
# Relative to: not given
# Reading: higher = stronger binding
# Construct (chain): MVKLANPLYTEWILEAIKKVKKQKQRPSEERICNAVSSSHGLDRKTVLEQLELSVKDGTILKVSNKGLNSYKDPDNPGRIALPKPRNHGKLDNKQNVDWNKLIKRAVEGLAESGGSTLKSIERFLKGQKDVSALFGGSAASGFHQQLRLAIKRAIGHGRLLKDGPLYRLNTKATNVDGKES
Strand,E-score
GTGAGTCA,-0.116
ACAACAAC,-0.15
ACTTGCCA,-0.196
AGTAATAG,-0.07
ACAGTGGG,-0.212
CAACGGCC,0.248
ATCATATA,-0.0347
ACTAATCA,-0.00944
CCTAGCGC,0.192

# Set 3
# Target: CCNB2, cyclin fold, Cln2 fusion (human)
# Method: yeast growth competition, sequencing
# Medium: yeast
# Notes: weak parent motif
# Relative to: not given
# Reading: higher = stronger binding
# Starting sequence: RP1L1 docking peptide (human); TLGLGPLSFTLED; partner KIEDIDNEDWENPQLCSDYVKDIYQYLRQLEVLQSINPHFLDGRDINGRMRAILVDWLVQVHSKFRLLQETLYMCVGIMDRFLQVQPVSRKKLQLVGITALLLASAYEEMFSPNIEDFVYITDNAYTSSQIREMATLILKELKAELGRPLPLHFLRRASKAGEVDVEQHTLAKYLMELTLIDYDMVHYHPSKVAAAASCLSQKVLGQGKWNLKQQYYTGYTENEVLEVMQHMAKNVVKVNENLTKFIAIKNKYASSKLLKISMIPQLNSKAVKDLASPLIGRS
Substitution,normalised enrichment score
P6A,-0.782
T1A,-0.538
E12A,-0.934
D13A,-1.17
L2A,-0.885
S8A,-0.984

# Single results of other studies
Substance,target,test,system,setting,how to read,quantity,value
"PhoQ, residues 284 288 289 292 302 303 TTSMTC","PhoP, residues 12 14 15 18 19 GQAIL (Escherichia coli, UniProt P23836)","Sort-seq, item: YFP reporter",E. coli,"PhoQ-PhoP variant library, with: 10 µM Mg2+","relative to: high Mg2+ state, higher = stronger signaling",fold induction,20.3

# Excerpt of the above (set 3):
Substitution,normalised enrichment score
E12A,-0.934
D13A,-1.17
